# Measured values of several laboratories.
# Several values in a cell are separate wells, animals, samples, runs or records. Numbers after ± are the reported error.
# Adhesin FmlH lectin domain: Adhesin FmlH, lectin domain (Escherichia coli, UniProt Q1RBS0)
# USP51: Ubiquitin carboxyl-terminal hydrolase 51 (USP51, Homo sapiens, UniProt Q70EK9)
# Chain of UniProt Q70EK9 (whole entry, looked up): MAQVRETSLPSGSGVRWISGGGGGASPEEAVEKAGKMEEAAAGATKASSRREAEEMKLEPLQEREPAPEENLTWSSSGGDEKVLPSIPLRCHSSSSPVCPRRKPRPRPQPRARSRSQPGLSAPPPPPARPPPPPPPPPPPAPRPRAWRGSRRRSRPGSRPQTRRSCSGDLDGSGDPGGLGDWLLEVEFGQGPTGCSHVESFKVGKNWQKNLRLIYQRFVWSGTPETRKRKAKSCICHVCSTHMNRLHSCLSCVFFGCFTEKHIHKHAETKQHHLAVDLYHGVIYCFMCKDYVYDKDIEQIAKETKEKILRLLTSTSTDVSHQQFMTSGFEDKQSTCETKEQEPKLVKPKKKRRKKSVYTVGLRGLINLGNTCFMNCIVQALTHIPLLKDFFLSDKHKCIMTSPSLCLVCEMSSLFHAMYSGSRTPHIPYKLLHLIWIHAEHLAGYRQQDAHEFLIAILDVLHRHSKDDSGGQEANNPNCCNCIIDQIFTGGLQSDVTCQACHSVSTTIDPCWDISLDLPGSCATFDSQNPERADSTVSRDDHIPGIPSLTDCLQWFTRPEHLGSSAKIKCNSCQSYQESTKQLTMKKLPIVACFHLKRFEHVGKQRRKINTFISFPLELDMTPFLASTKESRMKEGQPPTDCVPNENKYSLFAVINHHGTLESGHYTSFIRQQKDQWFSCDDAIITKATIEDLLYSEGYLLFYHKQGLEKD
# PTGS1: Prostaglandin G/H synthase 1 (PTGS1, Ovis aries, UniProt P05979)
# Chain of UniProt P05979 (whole entry, looked up): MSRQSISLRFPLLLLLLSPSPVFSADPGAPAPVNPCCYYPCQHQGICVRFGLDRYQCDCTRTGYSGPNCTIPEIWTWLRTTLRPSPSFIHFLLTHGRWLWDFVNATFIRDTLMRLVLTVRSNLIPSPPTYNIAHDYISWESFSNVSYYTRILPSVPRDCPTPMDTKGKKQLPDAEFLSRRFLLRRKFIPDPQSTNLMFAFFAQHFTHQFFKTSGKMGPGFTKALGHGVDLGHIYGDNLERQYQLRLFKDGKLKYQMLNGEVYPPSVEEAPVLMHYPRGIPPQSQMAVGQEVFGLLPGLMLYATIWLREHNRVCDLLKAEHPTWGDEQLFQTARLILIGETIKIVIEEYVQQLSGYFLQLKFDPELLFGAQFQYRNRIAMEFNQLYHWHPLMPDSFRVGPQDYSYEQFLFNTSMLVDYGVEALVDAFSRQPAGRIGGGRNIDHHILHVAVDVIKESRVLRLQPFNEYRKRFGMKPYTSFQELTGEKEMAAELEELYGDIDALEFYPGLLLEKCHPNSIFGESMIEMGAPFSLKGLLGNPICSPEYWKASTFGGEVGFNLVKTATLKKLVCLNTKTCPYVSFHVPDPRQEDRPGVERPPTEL
# PLG: Plasminogen (PLG, Homo sapiens, UniProt P00747)
# Chain of UniProt P00747 (whole entry, looked up): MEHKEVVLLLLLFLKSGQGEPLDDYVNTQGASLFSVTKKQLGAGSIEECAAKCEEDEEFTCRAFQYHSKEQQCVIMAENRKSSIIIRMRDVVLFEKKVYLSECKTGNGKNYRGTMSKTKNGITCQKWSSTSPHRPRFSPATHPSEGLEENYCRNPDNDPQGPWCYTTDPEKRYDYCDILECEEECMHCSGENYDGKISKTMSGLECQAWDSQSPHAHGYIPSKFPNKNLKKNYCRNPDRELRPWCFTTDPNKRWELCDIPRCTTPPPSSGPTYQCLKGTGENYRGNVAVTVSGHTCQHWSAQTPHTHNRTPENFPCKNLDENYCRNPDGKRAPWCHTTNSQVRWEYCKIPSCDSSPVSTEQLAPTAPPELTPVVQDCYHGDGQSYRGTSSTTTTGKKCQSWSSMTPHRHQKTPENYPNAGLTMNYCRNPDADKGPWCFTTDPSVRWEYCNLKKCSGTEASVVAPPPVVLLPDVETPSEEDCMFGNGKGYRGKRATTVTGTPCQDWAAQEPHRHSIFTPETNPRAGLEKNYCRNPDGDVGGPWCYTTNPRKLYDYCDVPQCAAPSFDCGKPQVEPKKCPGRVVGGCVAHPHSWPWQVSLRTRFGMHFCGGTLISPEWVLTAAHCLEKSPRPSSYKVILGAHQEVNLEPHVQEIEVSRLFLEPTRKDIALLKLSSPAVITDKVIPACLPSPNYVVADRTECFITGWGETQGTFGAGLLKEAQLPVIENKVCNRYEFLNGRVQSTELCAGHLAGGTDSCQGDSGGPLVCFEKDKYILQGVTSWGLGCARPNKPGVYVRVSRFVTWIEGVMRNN
# MAL12: Alpha-glucosidase MAL12 (MAL12, Saccharomyces cerevisiae S288c, UniProt P53341)
# Chain of UniProt P53341 (whole entry, looked up): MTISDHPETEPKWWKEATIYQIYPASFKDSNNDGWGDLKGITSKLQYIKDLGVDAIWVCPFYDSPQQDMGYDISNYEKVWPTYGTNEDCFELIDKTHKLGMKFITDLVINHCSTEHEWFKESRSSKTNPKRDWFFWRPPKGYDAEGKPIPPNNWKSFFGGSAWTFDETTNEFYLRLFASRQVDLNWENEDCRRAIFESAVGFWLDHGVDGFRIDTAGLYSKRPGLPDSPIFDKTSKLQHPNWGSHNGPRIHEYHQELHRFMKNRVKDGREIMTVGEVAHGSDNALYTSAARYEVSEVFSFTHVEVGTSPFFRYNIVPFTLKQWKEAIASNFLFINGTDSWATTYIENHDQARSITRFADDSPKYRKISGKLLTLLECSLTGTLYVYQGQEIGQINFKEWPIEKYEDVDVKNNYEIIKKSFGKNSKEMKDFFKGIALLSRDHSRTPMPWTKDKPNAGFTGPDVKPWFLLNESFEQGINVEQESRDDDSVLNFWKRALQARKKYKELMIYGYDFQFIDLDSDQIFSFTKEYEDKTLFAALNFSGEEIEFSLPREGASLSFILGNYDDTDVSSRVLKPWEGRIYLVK
# BDKRB1: B1 bradykinin receptor (BDKRB1, Homo sapiens, UniProt P46663)
# Chain of UniProt P46663 (whole entry, looked up): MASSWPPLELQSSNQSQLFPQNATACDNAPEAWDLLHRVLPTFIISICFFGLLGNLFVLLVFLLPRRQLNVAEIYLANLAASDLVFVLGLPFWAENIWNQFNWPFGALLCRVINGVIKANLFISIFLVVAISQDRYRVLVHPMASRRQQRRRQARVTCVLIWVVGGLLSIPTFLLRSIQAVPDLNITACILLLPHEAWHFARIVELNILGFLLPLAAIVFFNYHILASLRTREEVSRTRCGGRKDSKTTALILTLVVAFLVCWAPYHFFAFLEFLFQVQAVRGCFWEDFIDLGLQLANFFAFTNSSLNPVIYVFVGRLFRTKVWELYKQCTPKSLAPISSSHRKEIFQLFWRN
# HTR5A: 5-hydroxytryptamine receptor 5A (HTR5A, Homo sapiens, UniProt P47898)
# Chain of UniProt P47898 (whole entry, looked up): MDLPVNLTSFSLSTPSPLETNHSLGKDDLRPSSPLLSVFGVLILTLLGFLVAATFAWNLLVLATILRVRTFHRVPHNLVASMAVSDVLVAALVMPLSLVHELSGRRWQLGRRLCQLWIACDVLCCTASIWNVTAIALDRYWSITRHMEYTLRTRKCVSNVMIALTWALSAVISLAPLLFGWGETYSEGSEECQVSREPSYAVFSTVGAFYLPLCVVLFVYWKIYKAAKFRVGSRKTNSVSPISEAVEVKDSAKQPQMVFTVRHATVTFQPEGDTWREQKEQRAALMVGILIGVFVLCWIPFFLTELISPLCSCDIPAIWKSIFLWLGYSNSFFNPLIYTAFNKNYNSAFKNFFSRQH
# Chain of UniProt Q15910 (whole entry, looked up): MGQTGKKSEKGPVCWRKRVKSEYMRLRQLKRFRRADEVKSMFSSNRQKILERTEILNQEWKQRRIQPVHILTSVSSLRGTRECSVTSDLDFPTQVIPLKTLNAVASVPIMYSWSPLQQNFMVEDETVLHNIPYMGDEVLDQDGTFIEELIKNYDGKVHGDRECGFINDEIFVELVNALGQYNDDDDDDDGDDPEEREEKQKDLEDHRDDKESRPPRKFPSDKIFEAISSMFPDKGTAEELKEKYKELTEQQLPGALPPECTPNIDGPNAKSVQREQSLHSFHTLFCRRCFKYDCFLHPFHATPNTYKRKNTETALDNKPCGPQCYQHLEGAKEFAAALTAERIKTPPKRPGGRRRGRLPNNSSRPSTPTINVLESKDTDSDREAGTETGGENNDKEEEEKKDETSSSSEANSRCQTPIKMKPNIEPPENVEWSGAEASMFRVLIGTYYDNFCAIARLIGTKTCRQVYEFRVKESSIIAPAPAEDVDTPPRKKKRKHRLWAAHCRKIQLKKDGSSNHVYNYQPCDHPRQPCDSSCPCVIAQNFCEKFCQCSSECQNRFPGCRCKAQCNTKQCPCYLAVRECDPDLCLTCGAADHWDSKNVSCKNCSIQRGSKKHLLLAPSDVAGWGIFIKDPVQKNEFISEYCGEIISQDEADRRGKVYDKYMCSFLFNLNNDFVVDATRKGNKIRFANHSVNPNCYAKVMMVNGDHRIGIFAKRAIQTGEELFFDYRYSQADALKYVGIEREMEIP
# Chain of UniProt P18825 (whole entry, looked up): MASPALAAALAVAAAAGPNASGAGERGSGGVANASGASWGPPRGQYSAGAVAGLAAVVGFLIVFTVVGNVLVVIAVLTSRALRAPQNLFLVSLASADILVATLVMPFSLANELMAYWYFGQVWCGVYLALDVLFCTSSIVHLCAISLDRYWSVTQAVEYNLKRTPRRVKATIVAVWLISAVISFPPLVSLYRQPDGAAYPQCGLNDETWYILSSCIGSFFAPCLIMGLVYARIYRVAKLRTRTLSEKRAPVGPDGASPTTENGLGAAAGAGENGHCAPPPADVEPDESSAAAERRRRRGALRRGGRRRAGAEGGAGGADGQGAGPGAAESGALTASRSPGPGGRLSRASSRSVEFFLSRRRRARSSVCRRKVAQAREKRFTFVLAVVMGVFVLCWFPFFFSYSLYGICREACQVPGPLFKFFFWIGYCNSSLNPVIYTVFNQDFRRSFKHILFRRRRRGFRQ
# Chain of UniProt P32302 (whole entry, looked up): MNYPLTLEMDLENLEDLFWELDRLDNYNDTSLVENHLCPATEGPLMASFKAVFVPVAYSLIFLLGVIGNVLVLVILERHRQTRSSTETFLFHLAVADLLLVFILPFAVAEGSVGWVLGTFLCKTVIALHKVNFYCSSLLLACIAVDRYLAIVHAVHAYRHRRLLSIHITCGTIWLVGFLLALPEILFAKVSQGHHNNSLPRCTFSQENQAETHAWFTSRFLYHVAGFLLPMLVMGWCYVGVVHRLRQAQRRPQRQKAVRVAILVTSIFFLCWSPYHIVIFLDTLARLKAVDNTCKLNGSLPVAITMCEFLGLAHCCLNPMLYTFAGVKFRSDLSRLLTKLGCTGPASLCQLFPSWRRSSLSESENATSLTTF
SMILES,target,test,system,conditions,inhibition
OC[C@H]1O[C@@H](Oc2ccc3ccccc3c2)[C@H](O)[C@@H](O)[C@H]1O,Adhesin FmlH lectin domain,"binding to desialylated mucin, ELISA competition",UPEC UTI89,"10 µM, with: desialylated bovine submaxillary mucin",14.6 ± 3.1%
O=C(N[C@@H](CCNC(=O)c1ccc([N+](=O)[O-])o1)c1nc2ccccc2[nH]1)c1ccc(-n2cnnn2)cc1,"STING1 (Homo sapiens, UniProt Q86WV6, H232R)","reporter gene, inhibitor, Lucia reporter",THP1-Dual,"concentration not given, wild-type STING, with: diABZI",inactive
COc1ccc(C2CC(=O)N(CC(=O)Nc3ccc(F)cc3)c3ccccc3S2(=O)=O)cc1OC (centres unmarked),USP51,"enzyme activity, inhibitor",,1 µM,3.8 ± 1.1%
CS(=O)(=O)c1ccc(-n2cc(C=NN=c3[nH]c(-c4ccc(Br)cc4)cs3)c(-c3ccc([N+](=O)[O-])cc3)n2)cc1 (mixture of isomers),PTGS1,enzyme activity,,10 µM,55.3%
COc1ccc2c(c1)C(CC(=O)NC(C(=O)NC(CCc1ccccc1)C(=O)NCc1ccc(C)cc1)C(C)O)CC2=O (centres unmarked),PLG,"enzyme activity, inhibitor",,100 µM,-11%
Cc1nc2c(F)cc(-c3nc(Nc4ccc(CNC(=O)CCCCCCC(=O)NO)cc4)ncc3F)cc2n1C(C)C,MLCK(h) human kinase,enzyme activity,,1 µM,64%
O=C1c2sc(-c3ccc(N4CCC(F)C4)nc3F)nc2CCN1c1cccnc1 (centres unmarked),"ADRA2C (Homo sapiens, UniProt P18825)","ligand displacement, radioligand",,1 µM,4%
Nc1ccc(S(=O)(=O)N(Cc2cccc(Br)c2)CC2CCC(C(=O)NO)CC2)cc1 (centres unmarked),USP51,"enzyme activity, inhibitor",,1 µM,3.8 ± 0.9%
OC[C@H]1O[C@@H](Oc2cccc3ccccc23)[C@H](O)[C@@H](O)[C@H]1O,Adhesin FmlH lectin domain,"binding to desialylated mucin, ELISA competition",UPEC UTI89,100 µM,45.9 ± 3.7%
Cc1ccc(-c2nn(-c3ccc(S(C)(=O)=O)cc3)cc2C=NN=c2[nH]c(-c3ccc([N+](=O)[O-])cc3)cs2)cc1,PTGS1,enzyme activity,,1 µM,27.8%
COc1cc(-c2cc(CN(Cc3ccc(F)cc3)S(=O)(=O)c3ccccc3)no2)cc(OC)c1OC,USP51,"enzyme activity, inhibitor",,1 µM,32.2 ± 13.6%
O=C(CCO)c1ccc(O)cc1,MAL12,inhibitor,,"100 µg/mL, 0.4167 h, with: p-nitrophenyl glucoside substrate",47.6 ± 5.4%
O=[N+]([O-])c1ccc(O[C@@H]2O[C@H](CO)[C@H](O)[C@H](O)[C@H]2O)cc1,Adhesin FmlH lectin domain,"binding to desialylated mucin, ELISA competition",UPEC UTI89,"10 µM, with: desialylated bovine submaxillary mucin",13.7 ± 5.3%
O=C1c2sc(-c3ccc(N4CCC(CO)CC4)nc3F)nc2CCN1c1cccnc1,"Glucagon receptor (GCGR, Homo sapiens, UniProt P47871)","ligand displacement, radioligand",,1 µM,8%
C[Si](C)(C)C[C@@H](CN)CC(=O)O,BDKRB1,"ligand displacement, radioligand",,75 µM,17%
C/C=C/C(=O)Nc1ccc2nc(NCCCCCN(C)C)nc(NCCCCCCN(C)C)c2c1,"SETD2 (Homo sapiens, UniProt Q9BYW2)","enzyme activity, inhibitor, radiometric",,10 µM,65%
CC1Cc2ccccc2N1C(=O)CN1CCN(Cc2ccccc2)CC1 (centres unmarked),HTR5A,radioligand binding,,"concentration not given, with: [3H]LSD",12.9%
Cc1[nH]nc2c1N=C(c1ccccc1Cl)c1cnc(N3CCOCC3)cc1N2,BDKRB1,cell-free assay,,10 µM,5%
Cc1ccc(CNC(=O)C(CCc2ccccc2)NC(=O)C(NC(=O)c2ccc(OCc3ccc(C(C)(C)C)cc3)cc2)C(C)O)cc1 (centres unmarked),PLG,"enzyme activity, inhibitor",,100 µM,-18%
CN(C)C/C=C/C(=O)Nc1ccc2nc(NCCCCCN(C)C)nc(NCCCCCCN(C)C)c2c1,"EZH2 (Homo sapiens, UniProt Q15910)","enzyme activity, inhibitor, radiometric",,50 µM,84%
Cc1ccc(O[C@@H]2O[C@H](CO)[C@H](O)[C@H](O)[C@H]2O)cc1,Adhesin FmlH lectin domain,"binding to desialylated bovine submaxillary mucin, inhibitor, ELISA competition",UPEC UTI89,1 µM,4.6 ± 7.9%
CS(=O)(=O)c1ccc(-n2cc(C=NN=c3[nH]c(-c4ccc([N+](=O)[O-])cc4)cs3)c(-c3ccc([N+](=O)[O-])cc3)n2)cc1,PTGS1,enzyme activity,,10 µM,60.4%
Brc1ccccc1-c1nnc(CSc2nnnn2-c2ccccc2)o1,HTR5A,"ligand displacement, radioligand",,10 µM,-1%
C=CC(=O)Nc1cccc(-c2cnc3[nH]cc(C(=O)NC(C)(C)C)c3n2)c1,CK2,,,0.1 µM,2% and 1%
O=[N+]([O-])c1ccc(S[C@@H]2O[C@H](CO)[C@H](O)[C@H](O)[C@H]2O)cc1,Adhesin FmlH lectin domain,"binding to desialylated mucin, ELISA competition",UPEC UTI89,100 µM,72.5 ± 0.9%
C[Si]1(C[C@H](CN)CC(=O)O)CCCC1,"glycine receptor, rat","binding, radioligand binding",,70 µM,12%
C#CCOC(=O)[C@]1(C)C=C(C(=O)OC(C)(C)C)C(=O)CC1,"MAPK1 (Homo sapiens, UniProt P28482)","kinase activity, inhibitor, Kinase-Glo luminescence",,10 µM,no inhibition
Oc1cc2c(cc1O)C(c1cccc3[nH]ccc13)NCC2 (centres unmarked),MAL12,"enzyme activity, inhibitor",,"100 µM, DMSO solvent, with: pNPG substrate",77 ± 3.38%
Cc1cc(C)n(Cc2c(O)ccc3ccc(=O)oc23)n1,MAL12,inhibitor,,25 µM,20.2%
Cc1ccc(CNC(=O)[C@H](CCc2ccccc2)NC(=O)[C@H](CCc2ccccc2)NC(=O)Cc2cccc(Oc3ccccc3)c2)cc1,"CAPN1 (Homo sapiens, UniProt P07384)","enzyme activity, inhibitor",,100 µM,17%
OC[C@H]1O[C@@H](Oc2ccccc2Cl)[C@H](O)[C@@H](O)[C@H]1O,Adhesin FmlH lectin domain,"binding to desialylated mucin, ELISA competition",UPEC UTI89,"10 µM, with: desialylated bovine submaxillary mucin",20.7 ± 5.5%
CN1CC[C@@H](COc2cnc(C#N)cc2-c2ccn3nc(NC(=O)C4CC4)cc3c2)C1,"VRK1 (Homo sapiens, UniProt Q99986)","enzyme activity, inhibitor",,1 µM,4%
OC[C@H]1O[C@@H](Oc2ccccc2-c2ccccc2)[C@H](O)[C@@H](O)[C@H]1O,Adhesin FmlH lectin domain,"binding to desialylated bovine submaxillary mucin, inhibitor, ELISA competition",UPEC UTI89,1 µM,8.1 ± 6%
CCn1cc(C(=O)O)c(=O)c2c(N)c(F)c(NC3CCCCC3)cc21,"BCKDK (Homo sapiens, UniProt O14874)",kinase activity,,"0.1 µM, with: ATP at Km",-33.3%
N#Cc1ccccc1O[C@@H]1O[C@H](CO)[C@H](O)[C@H](O)[C@H]1O,Adhesin FmlH lectin domain,"binding to desialylated mucin, ELISA competition",UPEC UTI89,100 µM,94.5 ± 0.3%
CCOc1ccc(C(=O)Nc2nnc(Cc3nc4ccccc4[nH]3)s2)cc1OCC,USP51,"enzyme activity, inhibitor",,1 µM,31.9 ± 14.5%
O=C1CO[C@H](CNC(=O)C2(c3ccc(Cl)cc3)CC2)CN1C1Cc2ccccc2C1,"CXCR5 (Homo sapiens, UniProt P32302)","β-arrestin recruitment, antagonist",,1 µM,-2%
COc1ccc(S(=O)(=O)c2c(O)c3ccc(C(=O)Nc4ccc(F)cc4)cc3[nH]c2=O)cc1,USP51,"enzyme activity, inhibitor",,1 µM,22 ± 5%
Cc1ccc(CNC(=O)[C@H](CCc2ccccc2)NC(=O)[C@H](CC(=O)NCC(C)(C)C)NC(=O)CCc2cccc(F)c2)cc1,PLG,"enzyme activity, inhibitor",,100 µM,-18%
COCC(=O)N1CCc2cc(-c3csc(NC(=O)c4cc(OC)cc(OC)c4)n3)ccc21,"rolipram binding site (PDE4), rat",radioligand binding,,10 µM,8%
COc1cc(Nc2ccn3nccc3n2)cc(OC)c1OC,"crk3, with CYC6 (Leishmania mexicana, UniProt O15851)",IMAP fluorescence polarisation,,"30 µM, with L. major CYC6",0%
NC(=O)c1ccccc1NC(=O)CSc1ncnc2nc(N3CCCCCC3)sc12,USP51,"enzyme activity, inhibitor",,1 µM,14.1 ± 5.2%
COc1cc(C2NCCc3cc(O)c(O)cc32)cc(OC)c1OC (centres unmarked),MAL12,"enzyme activity, inhibitor",,"100 µM, DMSO solvent, with: pNPG substrate",38 ± 0.63%
CS(=O)(=O)c1ccc(-n2cc(C=NN=c3[nH]c(-c4ccc(Br)cc4)cs3)c(-c3ccc(Br)cc3)n2)cc1,PTGS1,enzyme activity,,100 µM,92.1%
Cc1noc(-c2ccc(O)cc2O)c1-c1ccc(Cl)cc1,USP51,"enzyme activity, inhibitor",,1 µM,11.9 ± 2%
Cc1ccc(-c2nn(-c3ccc(S(C)(=O)=O)cc3)cc2C=NN=c2[nH]c(-c3ccc(Br)cc3)cs2)cc1 (mixture of isomers),PTGS1,enzyme activity,,0.1 µM,17.6%
COc1cc(-c2cn(C)c(=O)c3cnccc23)cc(OC)c1CN(C)C,"Bromodomain testis-specific protein, BD2 (BRDT, Homo sapiens, UniProt Q58F21)",,,1 µM,-54.3%
